Measurements of several laboratories.
± gives the spread as reported.
UniProt P08183, sequence (whole entry, looked up): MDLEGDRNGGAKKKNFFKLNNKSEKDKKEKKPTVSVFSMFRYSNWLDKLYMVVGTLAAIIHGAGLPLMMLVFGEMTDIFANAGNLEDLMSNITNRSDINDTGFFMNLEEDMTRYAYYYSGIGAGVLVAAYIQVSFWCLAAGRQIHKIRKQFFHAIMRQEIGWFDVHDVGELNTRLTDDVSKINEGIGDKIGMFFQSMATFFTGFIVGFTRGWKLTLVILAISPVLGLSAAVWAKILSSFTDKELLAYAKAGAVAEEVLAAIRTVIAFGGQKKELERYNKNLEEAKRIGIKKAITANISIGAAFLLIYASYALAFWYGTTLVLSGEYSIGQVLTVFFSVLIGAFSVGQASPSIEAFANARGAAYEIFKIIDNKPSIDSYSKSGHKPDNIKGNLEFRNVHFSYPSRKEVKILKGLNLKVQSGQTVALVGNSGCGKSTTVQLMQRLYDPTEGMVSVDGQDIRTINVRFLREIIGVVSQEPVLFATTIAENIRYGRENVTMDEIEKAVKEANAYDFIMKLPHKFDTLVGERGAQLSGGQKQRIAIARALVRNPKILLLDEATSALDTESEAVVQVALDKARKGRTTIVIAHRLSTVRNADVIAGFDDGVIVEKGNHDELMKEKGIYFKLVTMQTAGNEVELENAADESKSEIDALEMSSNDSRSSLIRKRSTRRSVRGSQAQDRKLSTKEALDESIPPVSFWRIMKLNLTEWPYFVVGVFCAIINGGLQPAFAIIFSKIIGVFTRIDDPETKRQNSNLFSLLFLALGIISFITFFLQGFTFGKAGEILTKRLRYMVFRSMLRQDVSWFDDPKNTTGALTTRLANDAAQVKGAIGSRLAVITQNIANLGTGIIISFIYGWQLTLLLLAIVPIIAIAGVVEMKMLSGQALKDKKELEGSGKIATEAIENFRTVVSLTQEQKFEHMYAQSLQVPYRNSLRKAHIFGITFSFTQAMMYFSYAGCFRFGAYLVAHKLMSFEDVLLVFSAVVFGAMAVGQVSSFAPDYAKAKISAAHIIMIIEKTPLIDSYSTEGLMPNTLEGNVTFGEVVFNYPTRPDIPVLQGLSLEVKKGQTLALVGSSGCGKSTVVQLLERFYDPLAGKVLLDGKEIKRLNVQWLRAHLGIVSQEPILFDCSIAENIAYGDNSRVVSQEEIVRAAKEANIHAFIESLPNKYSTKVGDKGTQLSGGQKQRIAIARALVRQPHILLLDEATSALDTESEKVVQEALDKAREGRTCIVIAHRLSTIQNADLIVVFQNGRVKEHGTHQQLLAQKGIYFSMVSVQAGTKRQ

SMILES	tested on	test	test system	setting	how to read	measurement	value
NC1(C(=O)N[C@@H](CCO)c2ccc(Cl)cc2)CCN(c2nc[nH]c3nccc2-3)CC1	–	–	metastatic CRPC patients	480 mg b.i.d., any grade, treatment-related, together with: enzalutamide 160 mg daily	–	incidence of white blood cell decreased	0%
Cn1cc(Nc2nccc(-c3ccc4c(c3)CN(C3COC3)CC[C@H]4NC(=O)c3cn(C(C)(C)C)nn3)n2)cn1	–	–	human, whole blood	300 mg twice daily, day 14	baseline: pre-dose baseline	lymphocyte count change	3.95%
CC#CC(=O)N1CC[C@@H](n2c(=O)n(-c3ccc(Oc4ccccc4)cc3)c3c(N)ncnc32)C1	–	–	human, fasting, plasma	oral, 320 mg once daily, cycle 1 day 28	–	AUC(0-12h)	5.37 ± 1.14 µg·h/mL
Cc1cc(O)c2c(c1)C(=O)c1cc(O)cc(O)c1C2=O	HK-2 co-cultured with HepaRG	MTT	–	66.67 µM, 24 h	baseline: untreated control	viability	56.4 ± 3.23%
COc1ccc2c(=O)n(C)c(-c3ccccc3)nc2c1	–	–	Sprague-Dawley rat, male, small intestine	oral, 30 mg/kg, 4 h	–	concentration	1.12 µg/mL
Cc1cc(O)c2c(c1)C(=O)c1cccc(O)c1C2=O	HK-2 co-cultured with HepaRG	MTT	–	16.67 µM, 48 h	baseline: untreated control	viability	92.2 ± 3.27%
Cc1cc(-c2nccc3c2ccn3CC(=O)Nc2ccc(-c3cnccn3)cn2)ccn1	–	–	human	20 mg once daily, multiple ascending dose	–	subjects with infections	0%
CC(C)(C(=O)N1CCOc2c(C#N)cncc2C1)C(F)F	–	refers to: Insomnia	human	oral, 10 mg once daily, 14 days, multiple ascending dose	–	subjects with adverse event	0%
CCn1c(=O)c2c(nc(/C=C/c3ccc(OC)c(OC)c3)n2C)n(CC)c1=O	–	HPLC	solution	after 1 h light exposure	–	purity	63.1%
CCN1CCN(Cc2ccc(Nc3ncc(F)c(-c4cc(F)c5nc6n(c5c4)[C@H](C)CCC6)n3)nc2)CC1	–	–	human, plasma	400 mg single dose, median	–	Tmax	9.48 h
C[C@@H](c1ncncc1F)[C@](O)(Cn1cncn1)c1ccc(F)cc1F	–	–	human	oral, 400 mg, drug interaction trial	–	serious TEAE	0%
CC1(C)CC[C@]2(NC(=O)C(C)(F)F)CC[C@]3(C)[C@H](C(=O)C=C4[C@@]5(C)C=C(C#N)C(=O)C(C)(C)[C@@H]5CC[C@]43C)[C@@H]2C1	–	–	human, plasma	oral, 150 mg once daily, day 23 predose, median	–	trough plasma concentration	38.2 ng/mL
C[C@@H]1CN(CC(=O)N2CC(C)(C)c3nc(CO)c(Cc4ccc(F)cc4)cc32)[C@@H](CN2CCOC[C@H]2C)CN1	–	–	cynomolgus monkey, male	oral, 5 mg/kg	–	half-life	7.9 ± 1.9 h
CN[C@@H](C)C(=O)N[C@H]1CN(S(=O)(=O)c2cccc(S(=O)(=O)N3CC[C@H]4CC[C@@H](C(=O)NC(c5ccccc5)c5ccccc5)N4C(=O)[C@@H](NC(=O)[C@H](C)NC)C3)c2)CC[C@H]2CC[C@@H](C(=O)NC(c3ccccc3)c3ccccc3)N2C1=O	–	LC-MS/MS	human, advanced solid tumours, plasma	intravenous, 7 mg weekly, day 15	–	AUC(0-t)	0.137 ± 0.0479 µg·h/mL
CCCS(=O)(=O)Nc1ccc(F)c(C(=O)c2c[nH]c3ncc(-c4ccc(Cl)cc4)cc23)c1F	–	–	FaSSIF	literature solubility over dose	–	dose-adjusted solubility	5.63e-06 mL⁻¹
Cc1nc2cccc(OCC(C)(C)C(=O)NC(C)C)c2c(N)c1C(=O)O	–	–	male Swiss albino CD-1 mouse, bone marrow	oral, 1000 mg/kg, 24 h	–	micronucleated NCE per 2000 PCE	1
CC(=O)N(C)[C@H]1CCN(C(=O)c2cnc3c(c2)C[C@](C)(c2ccc(F)cc2)N3)C1	–	refers to: eyelid inflammation	human	oral, 15 mg once daily	–	adverse event duration	6 days
C=CC(=O)N(C)CCOc1c(N)ncnc1-c1cc(F)cc(NC(=O)c2ccc(C3CC3)cc2F)c1C	–	–	human	oral, 50 mg, day 3, median, given alone	–	AUC(0-inf) per dose	4.79 ng·h/mL/mg
CC[C@H]1[C@@H](O)[C@@H]2[C@H](CC[C@]3(C)[C@@H]([C@H](C)CCNC(=O)NS(=O)(=O)c4ccc(C(C)(C)C)cc4)CC[C@@H]23)[C@@]2(C)CC[C@@H](O)C[C@@H]12	ABCB1 (Homo sapiens, UniProt P08183)	substrate	human, plasma	dose not given, alone	–	CL/F geometric mean	14.2 L/h
C[C@@H]1CCO[C@H]2Cn3cc(C(=O)NCc4ccc(F)cc4F)c(=O)c(O)c3C(=O)N12	–	population PK, post-hoc	children, 20 to <25 kg, plasma	oral, 30 mg dispersible tablet, 24 h, steady state, geometric mean	–	plasma concentration	0.607 µg/mL

Some of these lines once more:
SMILES	tested on	test	test system	setting	how to read	measurement	value
CC1(C)CC[C@]2(NC(=O)C(C)(F)F)CC[C@]3(C)[C@H](C(=O)C=C4[C@@]5(C)C=C(C#N)C(=O)C(C)(C)[C@@H]5CC[C@]43C)[C@@H]2C1	–	–	human, plasma	oral, 150 mg once daily, day 23 predose, median	–	trough plasma concentration	38.2 ng/mL
C[C@@H]1CN(CC(=O)N2CC(C)(C)c3nc(CO)c(Cc4ccc(F)cc4)cc32)[C@@H](CN2CCOC[C@H]2C)CN1	–	–	cynomolgus monkey, male	oral, 5 mg/kg	–	half-life	7.9 ± 1.9 h
